Experimental data gathered from unrelated publications.
Each numbered part is a random draw from the data of one study; scales do not carry over between parts.

Study 1 — technique: protein binding microarray; molecule type: double-stranded DNA, one strand shown; matrix: in vitro; concentration: not given; relative to: not given; direction: higher = stronger binding; quantity: E-score
Target: Histone acetyltransferase KAT6A, winged helix 1, GST fusion (KAT6A, Homo sapiens, UniProt Q92794, residues 1-85)
Notes: 8-mer, flanks averaged, mean of 2 arrays, mostly near background
Construct (chain): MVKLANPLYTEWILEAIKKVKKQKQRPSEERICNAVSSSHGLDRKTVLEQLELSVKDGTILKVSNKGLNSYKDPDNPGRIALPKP
AGTACCCC: 0.0471
CATCGTTA: -0.126
AGCCAGCT: -0.293
ATACTTTG: -0.188
CTTCTCGC: 0.111
ACGCAACC: 0.133
AAGACACA: -0.3
CGACGATC: -0.00234
CTCAGCTA: -0.235
ATCCAACC: -0.138
AGTCCCGG: 0.217
CCCTGATA: -0.186
AGTACGTC: -0.0354
ACAATTAT: 0.061
CTTGCTGA: -0.224
CCGCGTAG: 0.27
CCTAATTA: -0.127
CAGCCCTA: -0.037
GCGCCGTA: 0.439
GCAAGGAC: 0.117
ATACTAGG: -0.0845
AAATAGAG: -0.218
ATTATATC: -0.0737
AGTACTTG: -0.0368
AAGCATCT: -0.0304

Study 2 — technique: protein-binding microarray; molecule type: double-stranded DNA, one strand shown; matrix: in vitro; concentration: 250 nM; notes: 60-bp whole probe; with: salmon DNA 0.4 mg/ml; relative to: random background probes; direction: higher = stronger binding; quantity: log fluorescence; constant ends, left off below: GCCTAGCAC … GTCTTGATTCGCTTGACGCTGCTG
Target: Interferon regulatory factor 7, full length, phosphomimetic (IRF7, Homo sapiens, UniProt Q92985, residues 1-503, S101K/S471D/S472D/S475D/S476D/S477D/S483D/S484D/S487D)
Residues (chain): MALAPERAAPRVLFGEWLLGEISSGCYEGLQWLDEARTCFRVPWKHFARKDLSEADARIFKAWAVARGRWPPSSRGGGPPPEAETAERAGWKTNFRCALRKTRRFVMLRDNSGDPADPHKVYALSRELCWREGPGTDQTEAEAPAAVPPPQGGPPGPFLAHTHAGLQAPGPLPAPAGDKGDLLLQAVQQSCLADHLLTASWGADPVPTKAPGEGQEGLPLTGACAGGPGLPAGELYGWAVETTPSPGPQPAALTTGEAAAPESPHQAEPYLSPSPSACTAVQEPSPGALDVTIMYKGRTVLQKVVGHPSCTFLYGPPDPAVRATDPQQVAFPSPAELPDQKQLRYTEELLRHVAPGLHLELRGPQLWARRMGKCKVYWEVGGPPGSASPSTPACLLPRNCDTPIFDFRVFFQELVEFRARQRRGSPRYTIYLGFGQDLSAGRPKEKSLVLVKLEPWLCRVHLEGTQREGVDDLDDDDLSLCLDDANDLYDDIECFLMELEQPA
TCACATTTATTTACTCTCACTGTGCTA: 1.05 z-score
GACGGTTTGCTTTTCCTGACGTGCTAG: 0.622 z-score
TGAGGTTTCCTTTCCCTTTAGTGCTAG: 4.42 z-score
GACGGTTTCCTACTGCTGATGTGCTAG: 1.46 z-score
GACGGTCGCGGACTGGGGACGTGCTAG: -0.48 z-score
GACGGTTTTGACTATCGGGACGTGCTA: 0.19 z-score
GACGTACTGGGGTATCGAGACGTGCTA: -0.315 z-score
TTGGGACTGGGGACTGGGTTAGTGCTA: -0.558 z-score
TTAGGACTGCTACTGCTTTAGTGCTAG: -0.458 z-score
TTTGGTTTCGACTTTCGGTTAGTGCTA: 12.6 z-score
TCAGGTATCGGTCTCGGTTAGTGCTAG: 2.14 z-score
TTAGGTTTCGACTACCGGTTAGTGCTA: 5.07 z-score
GGGTCTCTGGGTCGGGCAGGGTGCTAG: 0.265 z-score
TCACCTGTCCTTTTCTTACTGTGCTAG: 0.544 z-score
TTAGGACTGCTTATCCTTTGGTGCTAG: 0.0706 z-score
GACGGACTGCTACAGCTGACGTGCTAG: -0.815 z-score
GACGGTTTCCTAGTGCTGACGTGCTAG: 0.978 z-score
GCTTCCTCCTACCCGACCCCGTGCTAG: 2.07 z-score
GTAGGTTTCCTTTCCCTTTAGTGCTAG: 4.35 z-score
GACAGACTGGGGTATCGGGACGTGCTA: -0.79 z-score
TTATGTCTCCTTATCCTTTAGTGCTAG: 0.412 z-score
TTAGGTATAGGTTTCGGTTAGTGCTAG: 7.65 z-score
TTAGGTTTAGGTTCCGGTTAGTGCTAG: 2.42 z-score
GACGGACTGAGTATCGGGACGTGCTAG: -0.31 z-score
TTAGAACTGAGTAGCGATTAGTGCTAG: -0.0522 z-score

Study 3 — technique: RNA Bind-n-Seq; molecule type: RNA; matrix: in vitro; concentration: 365 nM; relative to: no-protein control; direction: higher = stronger binding; quantity: RBNS enrichment (R)
Target: RNA binding protein fox-1 homolog 2, RRM domain, GST-SBP tag (RBFOX2, Homo sapiens, UniProt O43251-10, residues 100-194)
Notes: natural RNA segment, single round, ends assumed
Residues (chain): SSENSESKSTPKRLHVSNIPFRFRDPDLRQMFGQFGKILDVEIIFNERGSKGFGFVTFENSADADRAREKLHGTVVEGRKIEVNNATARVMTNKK
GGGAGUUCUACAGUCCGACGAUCAAACAAAAUGUGUCCUACUUAAUUGGUAUAUGUGUUUUUCAAACAAUCAUUUGAGGGGUGUUUUGAUUUGGUUUGGUUUUUGUUUCUGUCUUUUUGGUCCAUUCAUUCACUGGAAUUCUCGGGUGCCAA: 0.561
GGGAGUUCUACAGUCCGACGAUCUCAUCUGGUUUAGAAAGCAAUUCAGUUUCUUUCAAACCACCAUAACCUAAGUGCUGCCCCAUCCUUCACCUUUACCCUAGAAAAUCUGAGAAUCCAUUGGUGUGUACUGUUGGAAUUCUCGGGUGCCAA: 0.43
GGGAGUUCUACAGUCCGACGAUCGGCACAGCUUGCAGGACCCUGGCUUUCUAAGCUGAACCACAGAUUGUUCUUCCACCCACCCUCUCUUUUUCUUUUUCUUUCAAGACAGGGAUUCUACGUGUAGCCCUGGCUGGAAUUCUCGGGUGCCAA: 0.601
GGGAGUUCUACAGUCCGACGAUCACAUUUAUUCACUUCCAAAUAUGUUUUAUGUAUACCCACAUACAGUGUGUGGGAUUACAGCCAAAGUAUACUUGUCAACAUAUACGAAGUCUCUAGUCCUAACUUUUAAAUGGAAUUCUCGGGUGCCAA: 0.372
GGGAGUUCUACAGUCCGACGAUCUUUGCAGCCUCAUAGGGUGGGAUACAGCAGCUUUUUUUGCAGUUAUCCACACUCACAUUUCAGAGUCCUGACUCUCAAGGAACCACUGGUUUUUGGGAUAGAACUUGGGCUGGAAUUCUCGGGUGCCAA: 0.244
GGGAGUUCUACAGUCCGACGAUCUUAGUGCUCUCUCUGCCUGGAUCCCGGCAGAAGCUAUGAAAGGGAAUAAAGAGAAAAGAAGUACCCAGGUCGUGGUGUCUUUGCGCUCUGUCUUUAGGACCGGGGAGAGAUGGAAUUCUCGGGUGCCAA: 0.743
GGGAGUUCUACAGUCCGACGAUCACAGAAACGUGGCAUCAUUUGGGAAGAACCAAGGUAGAAUUUAAUUUUCUGGACUUUAAAUCUCCUGGUUAAAUAAUGCUAAUCACUGUACCAUUUGAGUUACAUGUUUUUGGAAUUCUCGGGUGCCAA: 0.546
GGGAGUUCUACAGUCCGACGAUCGUGUUCUGUGUCCGACGCUGAGUGACCCUUUGUGAGAAAGACGUUGCCUUUGCAGUACAUGAAACAUCCCAUUCUUUGUUCUUGAUGGGAUAGGGGUCGUUAUUGUAGCAUGGAAUUCUCGGGUGCCAA: 5.41
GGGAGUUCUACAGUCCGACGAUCUAUCAUGACCGAGCUAGGUUGUGUGGGCAGGAAGGUAGGGCUAAGGGGUUGUAGCCUUGCUGGGCAGCCUCUCAGAGCAAGGUUGUUCAGAUCUCCCUUGCUAUUACAGUUGGAAUUCUCGGGUGCCAA: 0.62

Study 4 — technique: RNA Bind-n-Seq; molecule type: RNA; matrix: in vitro; concentration: not given; relative to: input RNA pool; direction: higher = stronger binding; quantity: bound/input enrichment
Target: RING finger protein unkempt homolog, zinc fingers 1-6, GST-SBP tag (UNK, Homo sapiens, UniProt Q9C0B0, residues 30-357)
UniProt Q9C0B0, sequence (30-357, looked up): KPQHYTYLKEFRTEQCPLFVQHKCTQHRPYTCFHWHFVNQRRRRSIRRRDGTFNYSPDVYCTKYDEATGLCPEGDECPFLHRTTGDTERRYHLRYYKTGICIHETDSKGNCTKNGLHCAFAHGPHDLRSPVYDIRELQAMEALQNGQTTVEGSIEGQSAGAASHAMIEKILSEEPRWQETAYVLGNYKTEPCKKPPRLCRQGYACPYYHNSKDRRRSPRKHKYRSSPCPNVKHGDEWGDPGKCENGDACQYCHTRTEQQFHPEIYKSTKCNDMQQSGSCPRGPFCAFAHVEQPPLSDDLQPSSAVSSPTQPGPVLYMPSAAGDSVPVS
Notes: RNA with constant flanks, human and mouse sites, ends assumed
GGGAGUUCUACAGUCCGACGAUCGGAGGUGAAGAAGGCCCUGGAACUACAGAUGGAGAAUCACCGUGAGGCCCAUCACCGGCAGCUGGCCCGCCUCCGGGAUGAGAUUAAUGAGAAACAGAAAACCAUUGAUGAGCUGAAAGACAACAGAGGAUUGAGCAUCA: 0.171 ratio
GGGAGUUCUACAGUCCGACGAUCUGGUUUUUGCAGGAAGAAAAAAGAGAAUGCUUUGGAGCUUGUCUCUUUACCUGUUAUGAUCUCUUAAGGCCAGAUGUCGUCCUGGAAACCGCAUGGAGACAUAAUAUCAUGGAUUUCGCCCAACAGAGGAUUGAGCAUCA: 0.226 ratio
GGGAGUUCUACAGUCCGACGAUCCCUGCUCCCAAAUCAUGGGCCAGUAACAAGCAAGGUGGGCAAGGAGAUGGAAUCCAAGUGAAUAGUCAAUUUCAGCAGGAAUUUCCCAGUCUGCAGGCAGCUGGAGAUCAGGAAAAAAAACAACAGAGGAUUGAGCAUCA: 0.151 ratio
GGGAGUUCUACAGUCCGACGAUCCUGGGACCUGAAGGACUUGAACUUAUUGAGAAACUCCUCCAGAACAGAAUUACAAUUGUGGAUAGAUUUCUUAAUUCUUCAAAUGAUCAUAGGUUUCAGGCUCUUCAAGACAAUUGUAAACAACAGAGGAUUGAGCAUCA: 0.257 ratio
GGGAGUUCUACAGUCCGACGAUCGUUUUUACCCCAACUUUGUCAGAUAUUUCCAUUGAUAAAUUGAAGGUAUCAAGCCCAGAGCUUCCCAAGCCAUGGGGUGAUGGAGACCUGCCACUGGAAGAAGAGAACCCUAACUCACCUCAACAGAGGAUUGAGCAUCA: 0.172 ratio
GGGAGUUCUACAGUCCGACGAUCCACUCUUCUGAUAAAGUAUCUAAACUAGAAGGCCAAGUCGAAUCUUAUAAGAAGAAGCUGGAAGACCUUGGAGAUUUGAGGCGGCAGGUUAAGCUCUUGGAAGAAAAGAAUACGAUGUACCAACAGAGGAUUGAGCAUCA: 0.273 ratio
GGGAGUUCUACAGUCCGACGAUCGAGAGAAACCUUACAAAUGUAGUGAGUGUGGCAAAUGCUUCACUAGUGGCUCAUAUCUUAGAAUGCACCAAAGAAUUCAUACAGGAGACAAACCUUACAAAUGUAGUGACUGUGAUAAAUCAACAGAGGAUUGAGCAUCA: 0.694 ratio
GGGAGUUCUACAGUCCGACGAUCUCUGAUGACUUUAAUUUUAAAAUCUUGUGACAUUUUGCUUAUACUAAAAGUUAUCUAUCUUUAGUUGAAUAUUUUCUUUUGGAGAGAUUGUAUAUUUUAAAAUACUGUUUAGAGUUUAUGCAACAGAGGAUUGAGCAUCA: 2.34 ratio
